Measured values from different studies.
Parts stem from different laboratories: compare values within a part only. Substitutions count along the parent as printed.

Sample 1
Target: Fragile X messenger ribonucleoprotein 1, C-terminal low-complexity region (Fmr1, Mus musculus, UniProt P35922)
Method: RNA Bind-n-Seq
Molecule type: RNA
Matrix: in vitro
Tested at: 200 nM
Notes: whole 134-nt RNA, ends assumed
Added: 150 mM KCl
Baseline: input library
Reading: higher = stronger binding
Shared flanks, not repeated: GGGAGUUCUACAGUCCGACGAUC … UGGAAUUCUCGGGUGUCAAGG
Strand	log2 enrichment
CACAGACAACACGCACCCACACAGACACAGAGGGAAGGGGUUGGGAUGGGGACAGGGUGCACAGCAGGGCGGGGUAGGACCCCAUCCCCU	1.35
CAAGUCCUGUGCUACACAUCGUAUGUACCGAAUCGGGGAAGGGGAAGGGGAAGGGAAAGUAUUAUGUUACGCCGUUCGGAUCUGCACUUC	0.758
GUCCUGUGCUACACAUCGUAUGUACCGAAUCGGAAAAAGGGAAAAAGGGAAAAAGGGGAAAGUAUUAUGUUACGCCGUUCGGAUCUGCAC	-0.0514
CUCAAGUCCUGUGCUACACAUCGUAUGUACCGAAUCGGAAAGGUUUGGAAAGGAAAGUAUUAUGUUACGCCGUUCGGAUCUGCACUUCCA	-0.482
AGUCCUGUGCUACACAUCGUAUGUACCGAAUCAAACCCAAACCCCCCCAAACCCAAAAAAGUAUUAUGUUACGCCGUUCGGAUCUGCACU	-0.248
GUCCUGUGCUACACAUCGUAUGUACCGAAUCGGGGUUUGGGGUUUUUUUGGGGUGGGGAAAGUAUUAUGUUACGCCGUUCGGAUCUGCAC	0.993
AAGUCCUGUGCUACACAUCGUAUGUACCGAAUCGGUGGUUUUUUUGGAAAAAAAGGAAAGUAUUAUGUUACGCCGUUCGGAUCUGCACUU	-0.864
GUCCUGUGCUACACAUCGUAUGUACCGAAUCGGGGUUUUUUUGGGGAAAGGGGUGGGGAAAGUAUUAUGUUACGCCGUUCGGAUCUGCAC	0.483
AGUCCUGUGCUACACAUCGUAUGUACCGAAUCGGGGUUUUUUUGGGGAGGGGAGGGGAAAGUAUUAUGUUACGCCGUUCGGAUCUGCACU	0.862
CCUGUGCUACACAUCGUAUGUACCGAAUCGGGAAAAAAGGGGAAAAAAGGGAAAAAAGGGAAAGUAUUAUGUUACGCCGUUCGGAUCUGC	-0.469
UAACUUUAGAGGAGGAUCUGAUGGAUAUGGCAGUGGACGUGGAUUUGGGGAUGGCUAUAAUGGGUAUGGAGGAUGACCUGGAGGUGGCAA	0.186
UGGGAGGUGGAUUUUGUUUAUUUUUUUAGCUCAUUUCCAGGGGUGGGAACUUUUUUUUAAUAUGUGUCAUGAAUAAAGUUGUUUUUGAAA	0.262
CACAGACAACACGCACCCACACAAAAACAGAGGGAAGGGGUUGGGAUGGGGACAGGGUGCACAGCAGGGCGGGGUAGGACCCCAGCCCCU	1.19
CAAGUCCUGUGCUACACAUCGUAUGUACCGAAUCGGUUUGGAAAGGUUUUUUUGGAAAGUAUUAUGUUACGCCGUUCGGAUCUGCACUUC	-0.678

Sample 2
Target: Prothrombin, mature alpha-thrombin (F2, Homo sapiens, UniProt P00734)
Method: aptamer microarray, sandwich
Molecule type: DNA with 2'F-ANA
Matrix: in vitro
Tested at: 200 nM
Notes: whole 15-mer aptamer, many near background
Added: Cy3 exosite-II aptamer, 400 nM
Reading: higher = stronger binding
Strand: GGTTGGTGTGGTTGG
Modification	mean fluorescence intensity
2'F-ANA at 2 3 6 7 9 11 13	512 a.u.
2'F-ANA at 4 7 8 11 13 14	102 a.u.
2'F-ANA at 2 3 5 6 7 8 12 14	55.3 a.u.
2'F-ANA at 1 2 3 4 6 11 12 14 15	65.5 a.u.
2'F-ANA at 3 4 6 7 10 12 13 14	155 a.u.
2'F-ANA at 1 2 3 4 6 8 10 15	58.5 a.u.
2'F-ANA at 1 2 3 5 7 8 9 12 15	138 a.u.
2'F-ANA at 2 6 10 11 14 15	92.5 a.u.
2'F-ANA at 2 3 4 6 7 9 10 12 13	207 a.u.
2'F-ANA at 4 5 7 9 10 11 13 14	43.5 a.u.
2'F-ANA at 1 3 4 5 10 11 12 15	87.8 a.u.
2'F-ANA at 1 2 3 4 7 8 9 10 11 12 14 15	54.1 a.u.
2'F-ANA at 3 4 6 7 9 10 11 13	176 a.u.
2'F-ANA at 3 6 8 10 11 12 14	341 a.u.
2'F-ANA at 1 2 3 4 5 10 11	47.6 a.u.
2'F-ANA at 3 4 5 8 12 14 15	69.4 a.u.
2'F-ANA at 1 2 3 4 5 7 8 9 10 14	66.7 a.u.

Sample 3
Target: CCNE1, cyclin fold, Cln2 fusion (human)
Method: yeast growth competition, sequencing
Matrix: yeast
Notes: strong parent motif
Baseline: not given
Reading: higher = stronger binding
Starting sequence: SCAPER docking peptide (human); SNARRSLNFGGST
Variant	normalised enrichment score
SNARRSLNFGSST [G11S]	0.742
SNARRSPNFGGST [L7P]	0.122
SNAARSLNFGGST [R4A]	0.276
SNARRSLNFGIST [G11I]	0.733
SNARRSLNFYGST [G10Y]	1.04
SNARISLNFGGST [R5I]	0.871
SNARRSLNQGGST [F9Q]	0.133
SNARRSLNFAGST [G10A]	0.912
SNARRSWNFGGST [L7W]	0.142
SNARRSLNFGLST [G11L]	0.583
SNWRRSLNFGGST [A3W]	0.417
SNARNSLNFGGST [R5N]	-0.76
SNARRSLIFGGST [N8I]	1.51
SNARRSLNIGGST [F9I]	0.374
SNARRSLNFGNST [G11N]	0.689
SNARLSLNFGGST [R5L]	0.326
SNARRSHNFGGST [L7H]	0.309
SNARRPLNFGGST [S6P]	0.907
SNANRSLNFGGST [R4N]	0.689

Sample 4
Target: CREBL2, bZIP domain (human)
Method: DHFR protein complementation
Matrix: yeast
Notes: single substitutions, most at no-binding floor
Baseline: wild-type JUN-FOS pair
Reading: higher = stronger binding
Starting sequence: JUN, bZIP domain (human); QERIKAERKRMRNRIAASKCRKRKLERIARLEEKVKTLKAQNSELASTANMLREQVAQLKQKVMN; partner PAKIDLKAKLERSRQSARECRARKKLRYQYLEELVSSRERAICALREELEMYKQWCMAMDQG
Variant	binding fitness [natural log]
R53P	-1.2
S47Q	-1.58
Q55K	-1.49
I28M	-1.46
R30G	-1.39
Q41T	-1.33
R30I	-1.58
A49S	-1.47
T37F	-1.52
I28C	-1.17
V35L	-1.55
Q41I	-1.58
R30S	-1.44
M51P	-1.51
E32C	-1.27
T48F	-1.3
A49T	-1.34

Sample 5
Target: ABI1, truncated, D143A, DHFR fusion (Arabidopsis thaliana)
Method: DHFR PCA, deep sequencing
Matrix: yeast
Notes: methotrexate growth selection, single substitutions
Added: (+)-ABA 58 µM
Baseline: wild-type fitted maximum
Reading: higher = stronger binding
Starting sequence: PYL1, truncated, DHFR fusion (Arabidopsis thaliana); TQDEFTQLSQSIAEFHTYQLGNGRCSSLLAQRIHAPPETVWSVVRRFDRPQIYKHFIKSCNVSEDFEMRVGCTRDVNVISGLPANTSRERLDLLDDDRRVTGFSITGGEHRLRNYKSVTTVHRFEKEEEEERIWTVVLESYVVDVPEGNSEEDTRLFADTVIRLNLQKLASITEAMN
Variant	relative binding score [%]
I133M	90.7
E125L	92.2
E127L	91.4
L8W	85.3
Q167K	87.9
D48S	47.1
I33Y	-12.5
Q7W	95.9
W41M	-17.9
I52V	87.5
I172V	86.2
M176P	80.4
K58F	54.3
Y115H	13.6
D95L	46.7
S140N	-1.46
N22V	91.6
E147D	89.7

Sample 6
Target: RING finger protein unkempt homolog, zinc fingers 1-6, GST-SBP tag (UNK, Homo sapiens, UniProt Q9C0B0, residues 30-357)
Method: RNA Bind-n-Seq
Molecule type: RNA
Matrix: in vitro
Tested at: not given
Notes: RNA with constant flanks, human and mouse sites, ends assumed
Baseline: input RNA pool
Reading: higher = stronger binding
Shared flanks, not repeated: GGGAGUUCUACAGUCCGACGAUC … CAACAGAGGAUUGAGCAUCA
Construct (chain): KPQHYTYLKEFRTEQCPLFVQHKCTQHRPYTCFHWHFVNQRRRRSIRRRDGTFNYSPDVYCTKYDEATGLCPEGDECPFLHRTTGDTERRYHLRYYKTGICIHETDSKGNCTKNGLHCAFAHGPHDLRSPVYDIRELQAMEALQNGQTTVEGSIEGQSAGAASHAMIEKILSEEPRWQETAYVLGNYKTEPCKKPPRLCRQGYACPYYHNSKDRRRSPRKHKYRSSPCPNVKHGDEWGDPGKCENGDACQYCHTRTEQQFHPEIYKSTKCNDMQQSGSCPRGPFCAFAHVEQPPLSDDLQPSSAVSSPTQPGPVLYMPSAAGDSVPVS
Strand	bound/input enrichment [ratio]
UUGCAGGUUUUAAAGGGUGAUAUUAGACCUGCUAUUGAAACUCACGAAAUGUUAUACCAGGUGAUUAAAAAACACAAUUUUCUACCAGAGGCAUUUACUACAGAUUUCAGGGUCCAUUGG	0.296
GUGCUAUUAAUAUUAGCUGAAGUAGCAAGCUAAAAGUAGACACUUCAUUUAUCUUUUUAGUAGCAUCCUCUCAACUGUUCCAGAUCCAGUUUUGCAUUUGGUUGUCUGUCUCAGUAGUCU	0.455
CUACCUGAGCAGUCCCCAGGAGAAUUUGACUUUAAUGAAUUCUUUAACCUUGAUAAGGUGCCAUGCUUGGCUUCGAUGAUAGAAGAUGUUCUGGGGGAAGGAUCGGUCUCUGCCAGCCGC	0.203
UGAAUUGUUACCUUAAAAUCUUAUCACUAACUUUAUUAGUAUUAUUAAUUAUUACGUUGGUUCCUACUGCUGGGAAGCUGUUCACAUCGCUCCUUAUACAGGAGCCAGCAAGCUGUAGGC	68
GUUCCGGCUCUUGAUGUUUUUAAUUUUUUUAAGAAAAAUGAUUACGUACAUAAAAGUCCAGAUUUAAAUACAUUUACUAUCUCAUUUCAAAAAUGAUUUUAAUAAUCCAUUUCUUAAAAC	0.403
ACAUUCACUGGGAUCUAUACCUUUGAGUCACUUAUAAAGAUCUUGGCCAGAGGAUUCUGCUUAGAAGAUUUCACAUUUCUUCGUGACCCAUGGAACUGGCUGGAUUUCAGUGUCAUCGUG	0.159
UUAGGUUGGAUGCAUCACACUGUAGAUCUCCUGGGAGAUAAAGCCACCAAGGAAAGCUAUGCUAUUCAGUAUCUCCAAAAGUCCUUGGAAGCAGAUCCUAAUUCUGGCCAGUCCUGGUAU	0.153
AUUCAGGCACAACUGACUGGUUCACAGCAUCCCUUACAUAGCUACCUAUCAAGUGCAAGUAUUGGUAAUUUUCAGGAACCAUCCAGGCAGUCGUCUUUAUCCUGUAGUUCAGUUCGAGAU	0.205
UCGGGGUGGAAGUCCAUGAUUCAGUCUCAUCCCCAUUUAGUGGCAGAAGCGUUCCGAGCACUAGCAUCUUCACAGUGUCCACAGUUUGGUAUUCCACGCAAAAGGUUAAAGCAGUCUUGA	0.0895
UUGGUGAAGUGUUUCACAUUGAUCAUCCAGAGUCUACAACGUGGUGAUAUACAGCCAUGGCUCCAUAGUGGAAGUAACAGUUUACUAAGUAAGCUCAUUCAUCAGUCUUAUCAUGGAACC	0.242
CUCUCAUUAUUUAUUGAUGAUAAACUGAAAAAGGGAGUCAAAGGGCUAACAGAACAAGAAGUAGAAACAAUAUUGGAUAAGGCAAUGGUCCUUUUUAGGUUUAUGCAAGAAAAAGAUGUA	11.5
